Results of several laboratories.
Every numbered part comes from another study and shows a few of its results, in no order.
UniProt Q8IYT8, sequence (whole entry, looked up): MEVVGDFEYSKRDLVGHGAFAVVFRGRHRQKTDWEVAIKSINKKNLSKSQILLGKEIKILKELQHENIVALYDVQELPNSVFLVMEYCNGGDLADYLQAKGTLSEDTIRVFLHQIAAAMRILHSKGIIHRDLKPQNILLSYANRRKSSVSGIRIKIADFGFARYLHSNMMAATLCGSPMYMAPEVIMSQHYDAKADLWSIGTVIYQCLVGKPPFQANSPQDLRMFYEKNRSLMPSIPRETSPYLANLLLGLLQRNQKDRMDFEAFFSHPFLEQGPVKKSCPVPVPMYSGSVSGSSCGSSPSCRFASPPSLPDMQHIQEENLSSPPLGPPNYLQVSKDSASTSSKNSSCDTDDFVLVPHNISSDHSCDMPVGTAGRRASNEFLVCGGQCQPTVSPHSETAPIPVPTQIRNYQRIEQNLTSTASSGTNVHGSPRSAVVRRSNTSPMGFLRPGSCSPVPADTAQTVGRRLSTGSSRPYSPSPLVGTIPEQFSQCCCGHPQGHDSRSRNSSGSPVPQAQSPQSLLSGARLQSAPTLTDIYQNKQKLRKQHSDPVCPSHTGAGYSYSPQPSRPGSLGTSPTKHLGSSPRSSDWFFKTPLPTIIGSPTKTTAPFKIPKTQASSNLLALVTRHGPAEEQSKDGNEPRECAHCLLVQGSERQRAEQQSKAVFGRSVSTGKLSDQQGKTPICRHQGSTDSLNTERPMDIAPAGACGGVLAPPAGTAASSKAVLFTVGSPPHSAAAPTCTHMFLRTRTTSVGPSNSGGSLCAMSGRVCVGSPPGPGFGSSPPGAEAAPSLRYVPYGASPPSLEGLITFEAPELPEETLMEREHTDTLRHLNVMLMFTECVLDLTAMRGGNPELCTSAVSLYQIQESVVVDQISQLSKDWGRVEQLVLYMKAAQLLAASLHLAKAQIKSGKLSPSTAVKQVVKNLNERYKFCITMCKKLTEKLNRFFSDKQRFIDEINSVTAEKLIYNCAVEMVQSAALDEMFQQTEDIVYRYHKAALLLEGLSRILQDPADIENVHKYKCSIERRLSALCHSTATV
UniProt P29320, sequence (whole entry, looked up): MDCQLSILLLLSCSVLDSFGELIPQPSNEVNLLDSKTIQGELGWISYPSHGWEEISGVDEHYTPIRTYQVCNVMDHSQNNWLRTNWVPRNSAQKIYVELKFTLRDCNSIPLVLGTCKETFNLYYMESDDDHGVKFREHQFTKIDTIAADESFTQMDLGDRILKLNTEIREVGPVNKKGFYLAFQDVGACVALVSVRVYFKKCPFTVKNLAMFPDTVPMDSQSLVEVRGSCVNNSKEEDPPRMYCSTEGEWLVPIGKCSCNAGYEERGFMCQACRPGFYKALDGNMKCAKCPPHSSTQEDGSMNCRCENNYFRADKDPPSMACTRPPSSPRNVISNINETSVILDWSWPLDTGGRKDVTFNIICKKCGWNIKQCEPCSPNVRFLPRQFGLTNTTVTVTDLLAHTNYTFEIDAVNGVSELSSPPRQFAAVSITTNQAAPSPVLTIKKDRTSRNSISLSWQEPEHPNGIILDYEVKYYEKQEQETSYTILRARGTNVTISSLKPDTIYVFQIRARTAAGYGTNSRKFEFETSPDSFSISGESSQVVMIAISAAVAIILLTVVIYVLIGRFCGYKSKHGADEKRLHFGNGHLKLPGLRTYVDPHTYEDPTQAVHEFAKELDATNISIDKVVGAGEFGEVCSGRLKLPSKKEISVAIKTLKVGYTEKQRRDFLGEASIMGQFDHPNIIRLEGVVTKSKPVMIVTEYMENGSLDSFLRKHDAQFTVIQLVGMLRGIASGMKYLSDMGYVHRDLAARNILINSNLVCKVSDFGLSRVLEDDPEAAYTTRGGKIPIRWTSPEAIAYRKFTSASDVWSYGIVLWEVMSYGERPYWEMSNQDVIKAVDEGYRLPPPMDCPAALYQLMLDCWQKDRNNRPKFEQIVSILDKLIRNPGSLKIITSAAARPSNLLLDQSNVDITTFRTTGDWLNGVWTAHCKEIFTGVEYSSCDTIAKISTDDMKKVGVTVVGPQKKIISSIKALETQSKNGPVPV
UniProt P22607, sequence (whole entry, looked up): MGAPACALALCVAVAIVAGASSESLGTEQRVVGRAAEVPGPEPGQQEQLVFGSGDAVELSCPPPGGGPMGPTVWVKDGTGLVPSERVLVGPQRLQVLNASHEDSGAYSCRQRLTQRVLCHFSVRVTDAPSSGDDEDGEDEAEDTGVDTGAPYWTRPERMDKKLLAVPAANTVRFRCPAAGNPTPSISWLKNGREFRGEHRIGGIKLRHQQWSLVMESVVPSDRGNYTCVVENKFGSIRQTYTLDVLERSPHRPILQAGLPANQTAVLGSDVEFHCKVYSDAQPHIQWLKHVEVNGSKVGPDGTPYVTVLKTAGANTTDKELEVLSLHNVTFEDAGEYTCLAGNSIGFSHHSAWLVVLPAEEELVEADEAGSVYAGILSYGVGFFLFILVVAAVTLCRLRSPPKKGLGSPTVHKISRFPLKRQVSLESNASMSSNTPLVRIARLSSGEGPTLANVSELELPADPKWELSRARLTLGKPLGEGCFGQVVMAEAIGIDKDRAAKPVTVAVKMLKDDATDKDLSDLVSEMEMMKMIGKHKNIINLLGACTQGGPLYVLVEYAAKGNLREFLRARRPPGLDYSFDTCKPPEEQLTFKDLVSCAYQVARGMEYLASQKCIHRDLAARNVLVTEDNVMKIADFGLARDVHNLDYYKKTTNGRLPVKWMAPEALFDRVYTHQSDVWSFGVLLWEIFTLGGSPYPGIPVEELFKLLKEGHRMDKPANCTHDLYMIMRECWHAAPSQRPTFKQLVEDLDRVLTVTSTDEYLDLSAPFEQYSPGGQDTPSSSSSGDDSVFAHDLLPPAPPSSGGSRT
UniProt Q04912, sequence (whole entry, looked up): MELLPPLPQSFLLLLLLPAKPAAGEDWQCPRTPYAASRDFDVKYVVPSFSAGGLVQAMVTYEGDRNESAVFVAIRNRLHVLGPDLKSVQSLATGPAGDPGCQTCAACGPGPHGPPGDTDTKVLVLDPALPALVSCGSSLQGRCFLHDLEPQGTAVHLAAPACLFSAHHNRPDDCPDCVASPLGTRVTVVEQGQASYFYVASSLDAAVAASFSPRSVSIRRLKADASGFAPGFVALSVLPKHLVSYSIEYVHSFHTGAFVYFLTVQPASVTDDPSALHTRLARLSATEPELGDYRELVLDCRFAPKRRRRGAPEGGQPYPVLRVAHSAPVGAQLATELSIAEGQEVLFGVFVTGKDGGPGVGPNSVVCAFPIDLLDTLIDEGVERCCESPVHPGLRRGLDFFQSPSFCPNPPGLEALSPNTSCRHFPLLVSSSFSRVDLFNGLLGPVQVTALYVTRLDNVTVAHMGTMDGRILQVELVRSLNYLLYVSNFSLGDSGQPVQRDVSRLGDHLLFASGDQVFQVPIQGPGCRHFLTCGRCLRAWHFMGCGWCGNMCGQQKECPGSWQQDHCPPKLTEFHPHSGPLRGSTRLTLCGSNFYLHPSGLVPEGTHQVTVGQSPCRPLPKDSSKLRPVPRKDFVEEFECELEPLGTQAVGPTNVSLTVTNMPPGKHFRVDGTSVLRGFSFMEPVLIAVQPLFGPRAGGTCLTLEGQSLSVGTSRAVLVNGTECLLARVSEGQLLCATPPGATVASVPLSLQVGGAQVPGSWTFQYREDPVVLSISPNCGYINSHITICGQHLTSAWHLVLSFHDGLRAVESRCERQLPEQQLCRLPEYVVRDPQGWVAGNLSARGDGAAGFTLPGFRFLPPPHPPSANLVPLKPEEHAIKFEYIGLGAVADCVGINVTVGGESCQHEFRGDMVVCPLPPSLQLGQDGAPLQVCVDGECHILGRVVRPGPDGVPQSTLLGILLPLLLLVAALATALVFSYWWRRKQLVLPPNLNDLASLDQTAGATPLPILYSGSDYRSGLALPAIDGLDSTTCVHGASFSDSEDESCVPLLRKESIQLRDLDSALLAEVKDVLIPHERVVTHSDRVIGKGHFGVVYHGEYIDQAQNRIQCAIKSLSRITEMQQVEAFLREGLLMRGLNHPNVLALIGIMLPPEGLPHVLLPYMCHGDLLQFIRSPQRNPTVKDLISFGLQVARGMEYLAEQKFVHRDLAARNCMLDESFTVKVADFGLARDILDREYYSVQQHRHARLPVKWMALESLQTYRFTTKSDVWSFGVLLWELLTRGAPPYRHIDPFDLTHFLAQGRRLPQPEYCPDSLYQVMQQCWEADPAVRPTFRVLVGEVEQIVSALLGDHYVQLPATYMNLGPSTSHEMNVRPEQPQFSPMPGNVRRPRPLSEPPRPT

Series 1 — observed: enzyme activity; mode: inhibitor; tested at: 0.5 µM; reference: control
SMILES: O=C1NC(=O)c2c1c1c3ccccc3n3c1c1c2c2ccccc2n1[C@H]1CC[C@@H]3O1
target | remaining activity
FGFR3 (Homo sapiens, UniProt P22607) | 36.3%
JAK3 (Homo sapiens, UniProt P52333) | 1.87%
MST1R (Homo sapiens, UniProt Q04912) | 87.7%
ULK2 (Homo sapiens, UniProt Q8IYT8) | 89.1%
TEK (Homo sapiens, UniProt Q02763) | 94.1%
EPHA3 (Homo sapiens, UniProt P29320) | 96.5%
TBK1 (Homo sapiens, UniProt Q9UHD2) | 7.4%

Series 2 — cell line: HEK-293T-ACE2; technique: Hoechst nuclei count; tested at: concentration not given; setting: counter-screen; reference: vehicle
SMILES | cell number [%]
Cc1ccc([C@@H]2O[C@H](CO)[C@@H](O)[C@H](O)[C@H]2O)cc1Cc1ccc(-c2ccc(F)cc2)s1 | 99
Cl.O=C1[C@@H]2[C@H]3CC[C@H](C3)[C@@H]2C(=O)N1C[C@@H]1CCCC[C@H]1CN1CCN(c2nsc3ccccc23)CC1 | 101
CC[C@H](C)[C@H]1O[C@]2(CC[C@@H]1C)C[C@@H]1C[C@@H](C/C=C(\C)[C@@H](O[C@H]3C[C@H](OC)[C@@H](O[C@H]4C[C@H](OC)[C@@H](O)[C@H](C)O4)[C@H](C)O3)[C@@H](C)/C=C/C=C3\CO[C@@H]4[C@H](O)C(C)=C[C@@H](C(=O)O1)[C@]34O)O2 | 96.5
CC(C)(C)c1nc(-c2cccc(NS(=O)(=O)c3c(F)cccc3F)c2F)c(-c2ccnc(N)n2)s1 | 91.9
CS(=O)(=O)c1ccc(C(=O)Nc2ccc(Cl)c(-c3ccccn3)c2)c(Cl)c1 | 97.5
CCC(=O)O[C@@H](O[P@](=O)(CCCCc1ccccc1)CC(=O)N1C[C@H](C2CCCCC2)C[C@H]1C(=O)[O-])C(C)C.[Na+] | 100
CNC(=O)c1cc(Oc2ccc(NC(=O)Nc3ccc(Cl)c(C(F)(F)F)c3)c(F)c2)ccn1 | 96.3
CCOc1cc([C@@H](CS(C)(=O)=O)N2C(=O)c3cccc(NC(C)=O)c3C2=O)ccc1OC | 98

Single results of other studies
pknB: Serine/threonine-protein kinase PknB (pknB, Mycobacterium tuberculosis, UniProt P9WI81)
UniProt P9WI81, sequence (whole entry, looked up): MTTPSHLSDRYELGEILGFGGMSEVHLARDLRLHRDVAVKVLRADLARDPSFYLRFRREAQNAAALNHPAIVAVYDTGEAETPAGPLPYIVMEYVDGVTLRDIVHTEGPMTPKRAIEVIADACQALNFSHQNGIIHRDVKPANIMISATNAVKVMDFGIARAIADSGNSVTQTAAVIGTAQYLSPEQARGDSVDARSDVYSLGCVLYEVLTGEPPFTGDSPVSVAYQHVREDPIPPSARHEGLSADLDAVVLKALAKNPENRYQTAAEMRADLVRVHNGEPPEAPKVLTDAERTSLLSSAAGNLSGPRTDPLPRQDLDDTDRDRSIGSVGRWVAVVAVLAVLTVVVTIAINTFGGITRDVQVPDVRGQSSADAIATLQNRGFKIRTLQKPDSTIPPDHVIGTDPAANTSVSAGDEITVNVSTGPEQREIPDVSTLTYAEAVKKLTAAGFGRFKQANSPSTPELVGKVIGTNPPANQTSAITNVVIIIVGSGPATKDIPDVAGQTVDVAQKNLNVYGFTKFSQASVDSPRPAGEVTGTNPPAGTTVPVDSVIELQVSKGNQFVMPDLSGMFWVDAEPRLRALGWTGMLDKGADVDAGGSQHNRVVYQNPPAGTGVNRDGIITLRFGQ
Structure (SMILES) | tested on | test | test system | conditions | measurement | value
C[C@H](c1ccc(F)cc1)N(Cc1cccc(C(=O)O)c1)C(=O)c1cnc2ccccc2c1 | pknB | cell-free assay, competition with immobilised ligand | – | 1 µM | remaining binding | 94%
CC(C)(C)NC(=O)c1cncn1C(c1ccc(Cl)cc1)c1ccc(Cl)cc1 | – | – | mouse, microsomes or S9 | 2 µM, 0.5 h | remaining compound | 74.8%
CCC(=O)N[C@@H]1CC[C@H](C(=O)N(C)c2ccc(-c3nc4ccccc4o3)cc2)C1 | pknB | cell-free assay, competition with immobilised ligand | – | 1 µM | remaining binding | 78%
COc1ccc(CN(C(=O)[C@@H](N)Cc2c(C)cc(C(N)=O)cc2C)[C@@H](C)c2nc(-c3ccccc3)c[nH]2)cc1C(=O)O | HaCaT | – | – | 100 µM, 60 h | viability | 139%

A few entries again (series 2):
SMILES | cell number [%]
CNC(=O)c1cc(Oc2ccc(NC(=O)Nc3ccc(Cl)c(C(F)(F)F)c3)c(F)c2)ccn1 | 96.3
